Experimental data collected from several papers.
A part holds a random share of what one study measured. Changes are numbered by the printed parent chain.
Chain of UniProt Q9ZTX8 (whole entry, looked up): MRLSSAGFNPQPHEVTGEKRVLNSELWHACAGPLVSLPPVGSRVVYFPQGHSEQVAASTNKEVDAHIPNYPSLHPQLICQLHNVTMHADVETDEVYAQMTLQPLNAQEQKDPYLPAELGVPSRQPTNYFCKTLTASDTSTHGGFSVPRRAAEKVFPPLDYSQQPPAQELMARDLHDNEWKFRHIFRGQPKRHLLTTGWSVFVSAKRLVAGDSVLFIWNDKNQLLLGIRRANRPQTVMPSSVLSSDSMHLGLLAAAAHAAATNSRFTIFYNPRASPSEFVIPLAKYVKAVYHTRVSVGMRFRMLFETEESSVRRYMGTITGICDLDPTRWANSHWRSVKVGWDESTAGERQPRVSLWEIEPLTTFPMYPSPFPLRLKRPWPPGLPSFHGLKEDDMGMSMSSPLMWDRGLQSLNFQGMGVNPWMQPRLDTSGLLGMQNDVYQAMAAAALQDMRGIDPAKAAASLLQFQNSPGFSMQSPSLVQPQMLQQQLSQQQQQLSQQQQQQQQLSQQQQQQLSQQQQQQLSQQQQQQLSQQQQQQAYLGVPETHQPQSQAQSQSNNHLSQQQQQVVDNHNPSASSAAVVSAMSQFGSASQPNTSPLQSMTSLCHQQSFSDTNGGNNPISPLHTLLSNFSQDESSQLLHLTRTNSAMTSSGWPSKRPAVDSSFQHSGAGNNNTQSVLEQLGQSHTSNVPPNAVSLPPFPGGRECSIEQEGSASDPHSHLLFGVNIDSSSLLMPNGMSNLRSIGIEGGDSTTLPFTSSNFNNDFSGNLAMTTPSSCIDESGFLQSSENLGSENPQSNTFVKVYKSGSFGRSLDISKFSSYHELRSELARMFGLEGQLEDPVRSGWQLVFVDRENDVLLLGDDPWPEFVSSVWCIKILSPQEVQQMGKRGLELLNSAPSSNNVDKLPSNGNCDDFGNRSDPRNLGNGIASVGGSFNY
Chain of UniProt Q9XFM0 (whole entry, looked up): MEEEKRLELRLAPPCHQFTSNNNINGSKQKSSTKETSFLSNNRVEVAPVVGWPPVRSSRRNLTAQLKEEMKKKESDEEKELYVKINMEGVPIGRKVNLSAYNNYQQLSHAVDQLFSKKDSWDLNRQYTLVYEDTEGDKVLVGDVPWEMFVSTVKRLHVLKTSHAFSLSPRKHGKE
Chain of UniProt O24409 (whole entry, looked up): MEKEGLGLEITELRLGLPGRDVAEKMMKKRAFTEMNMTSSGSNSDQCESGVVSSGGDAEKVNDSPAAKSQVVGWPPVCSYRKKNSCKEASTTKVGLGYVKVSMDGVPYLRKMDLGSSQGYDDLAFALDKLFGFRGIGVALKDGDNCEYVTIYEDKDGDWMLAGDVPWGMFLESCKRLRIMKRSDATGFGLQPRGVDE
Chain of UniProt Q9XID4 (whole entry, looked up): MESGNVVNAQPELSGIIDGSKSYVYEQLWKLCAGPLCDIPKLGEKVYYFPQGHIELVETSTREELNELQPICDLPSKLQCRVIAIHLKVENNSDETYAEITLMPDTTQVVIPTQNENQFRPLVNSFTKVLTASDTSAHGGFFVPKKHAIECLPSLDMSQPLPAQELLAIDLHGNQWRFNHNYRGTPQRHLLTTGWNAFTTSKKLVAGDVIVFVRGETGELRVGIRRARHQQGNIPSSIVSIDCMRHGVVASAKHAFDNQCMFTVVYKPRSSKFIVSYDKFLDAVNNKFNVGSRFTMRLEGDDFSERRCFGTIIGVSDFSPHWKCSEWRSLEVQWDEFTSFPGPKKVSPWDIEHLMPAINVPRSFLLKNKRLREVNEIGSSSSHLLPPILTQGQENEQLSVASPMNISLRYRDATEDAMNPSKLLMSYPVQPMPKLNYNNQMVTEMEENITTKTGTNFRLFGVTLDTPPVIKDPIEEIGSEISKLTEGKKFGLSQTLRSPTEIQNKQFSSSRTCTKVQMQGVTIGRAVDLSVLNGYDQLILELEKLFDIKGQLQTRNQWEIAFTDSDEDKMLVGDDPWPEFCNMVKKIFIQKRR
Chain of UniProt Q93YR9 (whole entry, looked up): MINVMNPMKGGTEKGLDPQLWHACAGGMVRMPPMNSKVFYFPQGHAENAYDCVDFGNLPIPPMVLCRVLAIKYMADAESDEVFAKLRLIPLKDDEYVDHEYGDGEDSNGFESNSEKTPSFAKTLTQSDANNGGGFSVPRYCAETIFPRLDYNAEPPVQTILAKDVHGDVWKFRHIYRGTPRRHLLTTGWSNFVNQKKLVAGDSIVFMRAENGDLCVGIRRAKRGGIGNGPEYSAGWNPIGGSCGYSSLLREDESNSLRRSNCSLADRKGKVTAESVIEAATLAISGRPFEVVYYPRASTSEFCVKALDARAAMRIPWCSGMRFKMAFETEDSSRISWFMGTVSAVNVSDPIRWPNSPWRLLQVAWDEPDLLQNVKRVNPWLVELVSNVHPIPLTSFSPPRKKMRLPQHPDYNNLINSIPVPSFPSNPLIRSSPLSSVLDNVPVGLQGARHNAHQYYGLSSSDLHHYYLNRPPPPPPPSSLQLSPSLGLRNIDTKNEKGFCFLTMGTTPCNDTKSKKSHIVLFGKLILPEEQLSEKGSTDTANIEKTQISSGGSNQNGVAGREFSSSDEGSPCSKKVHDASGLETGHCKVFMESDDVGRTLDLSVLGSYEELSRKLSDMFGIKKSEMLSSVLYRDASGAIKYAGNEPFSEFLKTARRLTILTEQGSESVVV
Chain of UniProt Q38832 (whole entry, looked up): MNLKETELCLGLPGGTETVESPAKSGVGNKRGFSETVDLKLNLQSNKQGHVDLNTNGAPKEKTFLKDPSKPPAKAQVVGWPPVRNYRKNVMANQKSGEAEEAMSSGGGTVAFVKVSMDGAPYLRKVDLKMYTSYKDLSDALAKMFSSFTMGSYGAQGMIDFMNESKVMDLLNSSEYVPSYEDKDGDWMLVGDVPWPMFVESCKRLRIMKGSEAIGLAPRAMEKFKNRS

Series 1 — target: CCNE2, cyclin fold, Cln2 fusion (human); technique: yeast growth competition, sequencing; matrix: yeast; setting: weak parent motif; baseline: not given; direction: higher = stronger binding
Parent: LLGL2 docking peptide (human); KSLKKSLRQSFRR; partner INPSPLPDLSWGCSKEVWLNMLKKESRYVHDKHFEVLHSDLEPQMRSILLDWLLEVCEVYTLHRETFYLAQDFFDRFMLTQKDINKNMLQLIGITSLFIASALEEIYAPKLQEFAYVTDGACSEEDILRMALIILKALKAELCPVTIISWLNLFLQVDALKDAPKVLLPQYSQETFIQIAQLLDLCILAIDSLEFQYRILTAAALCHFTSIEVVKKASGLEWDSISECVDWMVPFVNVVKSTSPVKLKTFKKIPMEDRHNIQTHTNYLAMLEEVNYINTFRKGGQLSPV
`KSLKKSLAQSFRR [R8A]` — result for “normalised enrichment score”: 0.46.
`KSLKKSLRQSARR [F11A]`: “normalised enrichment score” 0.0352.
Under “normalised enrichment score”, `KSLKKSARQSFRR [L7A]` is recorded as 0.863.
Under “normalised enrichment score”, `KSLKKALRQSFRR [S6A]` is recorded as -0.00745.
For `KSLKKSLRQSFRA [R13A]`, “normalised enrichment score” read 0.566.
`KSAKKSLRQSFRR [L3A]` — result for “normalised enrichment score”: 0.291.
`KALKKSLRQSFRR [S2A]` — result for “normalised enrichment score”: 0.38.

Series 2 — target: CREB3L2, bZIP domain (human); technique: DHFR protein complementation; matrix: yeast; baseline: wild-type JUN-FOS pair; direction: higher = stronger binding
Setting: single substitutions, most at no-binding floor
Parent: JUN, bZIP domain (human); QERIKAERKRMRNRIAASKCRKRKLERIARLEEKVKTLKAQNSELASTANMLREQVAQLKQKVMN; partner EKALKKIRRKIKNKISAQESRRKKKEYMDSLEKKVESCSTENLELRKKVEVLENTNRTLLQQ
With `M51A` the binding fitness was -1.32 natural log.
With `L45P` the binding fitness was -1.47 natural log.
`I28V` has a binding fitness of -1.24 natural log.
`T48I` has a binding fitness of -1.44 natural log.
`E32Q` gave a binding fitness of -1.19 natural log.
The binding fitness of `S43P` is reported as -1.47 natural log.
`T37H` has a binding fitness of -1.42 natural log.
For `L31G`, the binding fitness was -1.48 natural log.
`K39W` has a binding fitness of -1.44 natural log.
For `R53Y`, the binding fitness was -1.54 natural log.
The binding fitness of `N42W` is reported as -1.49 natural log.
`E54T` has a binding fitness of -1.4 natural log.
With `K39P` the binding fitness was -1.49 natural log.
The binding fitness of `K39G` is reported as -1.52 natural log.
`N42M` has a binding fitness of -1.34 natural log.
For `A49R`, the binding fitness was -1.46 natural log.
`S47G` has a binding fitness of -1.46 natural log.
`T48P` gave a binding fitness of -1.5 natural log.
`E44I` gave a binding fitness of -1.42 natural log.
For `E33W`, the binding fitness was -1.49 natural log.
The binding fitness of `V56H` is reported as -1.57 natural log.
`E33I` gave a binding fitness of -1.57 natural log.

Series 3 — technique: RNA Bind-n-Seq; molecule type: RNA; matrix: in vitro; concentration: not given; baseline: input RNA pool; direction: higher = stronger binding
Target: RING finger protein unkempt homolog, zinc fingers 1-6, GST-SBP tag (UNK, Homo sapiens, UniProt Q9C0B0, residues 30-357)
Chain of UniProt Q9C0B0 (30-357, looked up): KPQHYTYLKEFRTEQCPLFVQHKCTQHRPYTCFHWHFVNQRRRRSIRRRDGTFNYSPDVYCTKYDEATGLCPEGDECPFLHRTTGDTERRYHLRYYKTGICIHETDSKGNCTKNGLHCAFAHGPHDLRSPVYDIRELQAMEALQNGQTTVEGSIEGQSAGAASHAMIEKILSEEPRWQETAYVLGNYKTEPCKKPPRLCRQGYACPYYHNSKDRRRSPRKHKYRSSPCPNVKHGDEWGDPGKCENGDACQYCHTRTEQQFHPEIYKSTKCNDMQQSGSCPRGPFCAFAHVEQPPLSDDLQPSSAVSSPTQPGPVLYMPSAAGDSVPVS
Setting: RNA with constant flanks, human-mouse chimeric sites, ends assumed
Shared flanks, not repeated: GGGAGUUCUACAGUCCGACGAUC … CAACAGAGGAUUGAGCAUCA
The bound/input enrichment of `UGGCGCCUGCGCUCCCCACUCGUGUUUUUAAGUGUAUAAGAUGUAUAUACAUGUAUUUACAAUUGAGCUUUUGUUACUAUAAUACUGAAUGCUACUGGAGAUUAUGAAAAAUGUUUCAAU` is reported as 0.148 ratio.
For `GGGGAGAAACCUUAUGAGUGUGUGCAGUGUGGGAAAUCCUACAGUCAGAGCUCAAACCUCUUCAGACAUCAGAGACGACACAAUGCAGAAAAACUUUUGAAUGUUGUGAAGGUUUAAGAA`, the bound/input enrichment was 0.252 ratio.
With `AAUUUCCUGUCAUACUUUUUAGACAUUCACAUCAGACUUACAGAGCACCUGGCCACAUUCUAGGUUUGUGUUAUUUCUAAGCCUUUUAUAUGAUCAAAUGAGAACACUGCUUAACUAAUG` the bound/input enrichment was 0.356 ratio.
With `GAAACAUUUAAAUUUAAAGAAGCUGUUGUUCUAGGAAGCACGGACUUUCUAGAAGAUGAUAUAGAGAAAAUUGUAGAAGAACUGGGAAAAGAGUAUAAGGGCAACGCCUACCAUCUGAUG` the bound/input enrichment was 1.28 ratio.
For `UUUCUAUUGCAGCAAACGAUGCUAAGAAUUAAGGAUCCUAAGAAGUCCCUGGAUUUUUAUACUAGAGUUCUUGGACUGACCCUCCUGCAGAAGCUUGACUUCCCUGCUAUGAAGUUCUCG`, the bound/input enrichment was 0.453 ratio.
For `GCAAAGGAUGAUGAGGCGGCAGCUGUUGCCCUUUCCUCUCUCGUUCAUGCUUUGGAUGAGUUAAACAUGGUGGCCAUCGUCCGAUAUGCUUAUGACAAAAGAUCUAAUCCUCAAGUUGGU`, the bound/input enrichment was 0.233 ratio.
The bound/input enrichment of `GAAUCCUACUCAGGCGGUCCCACAACAACCAAGCUCACAGCAGCAGCAUCUUAGUCACAGUUAGGUAGUUUUGGGGCUCUGUGGCCAGGGUUUUAUUCACAUGCAGGUUUGGAAAAUGUA` is reported as 1.73 ratio.
The bound/input enrichment of `ACCUCCCCCUCCCGCCUCACCCCACCCCCGCUUUUUGGAAAGUUUUUGGCGUUUCUUUUCCUUCCCCAUACAAAGUGGUUUUUACCAAGAGUCUAUGGGUCUAUCGAAGGGCUUGACGGA` is reported as 0.467 ratio.
`GUGUCCUUUCAACUUAAUAAAUCACUGAGGCAUCUCUACUGUUCUGUGAGCAUCAGGACUGUAGCGCUGUGUCACCACAUGAGAGUUCAGAAGCAGCCUUUCUGUGGAGGGUGGGAAUGA` has a bound/input enrichment of 0.193 ratio.
`GAUCAUGGAACCAGAAUAGAAAUGAAGAUGAGAUUACCCAGACGAGCCAAAACAGCUGCGCUACAGAAAAGUAAACUUAACCUUGCACCAAUUUCUCAUGAAGAUACAAGUUAAGAGAGC` gave a bound/input enrichment of 0.63 ratio.
`GACUUGGGACCGUCCUGGGCUAGUACAAAUAGCGGCAGUGGAGGCUCGAGAGGAAAGUUGUUAGUGGGAGGCAGUGGUAGAGGCCGUCAUGUACGGUCCUUUACUCGAUAGAUGUGUUCU` gave a bound/input enrichment of 0.504 ratio.

Series 4 — technique: DHFR PCA, deep sequencing; matrix: yeast; with: (+)-ABA 0.032 µM; baseline: wild-type fitted maximum; direction: higher = stronger binding
Target: ABI1, truncated, D143A, DHFR fusion (Arabidopsis thaliana)
Setting: methotrexate growth selection, single substitutions
Parent: PYL1, truncated, DHFR fusion (Arabidopsis thaliana); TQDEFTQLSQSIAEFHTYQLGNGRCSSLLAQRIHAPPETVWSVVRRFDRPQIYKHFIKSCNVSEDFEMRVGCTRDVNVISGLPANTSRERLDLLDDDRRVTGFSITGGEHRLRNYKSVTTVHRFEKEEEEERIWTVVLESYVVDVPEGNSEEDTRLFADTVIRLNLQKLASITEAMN
`L28M` — result for “relative binding score”: 20.5%.
Under “relative binding score”, `C72H` is recorded as -6.28%.
`F124H`: “relative binding score” -2.26%.
For `S42E`, “relative binding score” read 31.6%.
`D48R`: “relative binding score” -1.19%.
`L91G`: “relative binding score” 0.0683%.
Under “relative binding score”, `L169A` is recorded as -1.02%.
`F5N` — result for “relative binding score”: -8.01%.
Under “relative binding score”, `R111I` is recorded as 7.06%.
For `T119P`, “relative binding score” read -2.05%.
`V62F` — result for “relative binding score”: -4.14%.
Under “relative binding score”, `R24M` is recorded as 17.7%.
`F157P` — result for “relative binding score”: 6.58%.
`S150T`: “relative binding score” 43.3%.
For `D75S`, “relative binding score” read 18%.
Under “relative binding score”, `R32Y` is recorded as 5.13%.
Under “relative binding score”, `V136W` is recorded as -3.55%.
For `S171N`, “relative binding score” read 22.7%.
`K116N` — result for “relative binding score”: -1.12%.
`N114P` — result for “relative binding score”: -6.24%.
Under “relative binding score”, `R45M` is recorded as -0.656%.
`R98A`: “relative binding score” 5.68%.
`M68D` — result for “relative binding score”: 3.79%.
`A84M`: “relative binding score” 54.5%.
`E14Q` — result for “relative binding score”: 10.3%.

Series 5 — Molecule: B1 (IAA10); technique: two-hybrid; baseline: out of 4 tests; direction: higher = firmer interaction
B1: IAA10 (Arabidopsis thaliana, UniProt Q38828); chain MNGLQEVCSSSGSVMIGLPAEEDENAAHSSEDSSCPDESVSETELDLALGLSIGRRKVRSSLSSSSSSLTRESGTKRSADSSPAAASNATRQVAVGWPPLRTYRINSLVNQAKSLATEGGLSSGIQKETTKSVVVAAKNDDACFIKSSRTSMLVKVTMDGVIIGRKVDLNALDSYAALEKTLDLMFFQIPSPVTRSNTQGYKTIKETCTSKLLDGSSEYIITYQDKDGDWMLVGDVPWQMFLGSVTRLRIMKTSIGAGVGK
For ARF6 790-935 (Arabidopsis thaliana, UniProt Q9ZTX8): positive tests read 2.
The positive tests was 2 (IAA28 (Arabidopsis thaliana, UniProt Q9XFM0)).
For IAA14 (Arabidopsis thaliana, UniProt Q38832): positive tests read 0.
IAA19 (Arabidopsis thaliana, UniProt O24409) — positive tests: 2.
ARF12 500-593 (Arabidopsis thaliana, UniProt Q9XID4) — positive tests: 1.
The positive tests was 0 (ARF16 570-670 (Arabidopsis thaliana, UniProt Q93YR9)).
